Measurements collected from several papers.
Compare with care: the assays were run in different laboratories. ± gives the spread as reported.
Cell line: human erythrocytes

CN[C@H](CC(C)C)C(=O)N[C@H]1C(=O)N[C@@H](CC(N)=O)C(=O)N[C@H]2C(=O)N[C@H]3C(=O)N[C@H](C(=O)N[C@H](C(=O)O)c4cc(O)cc(O)c4-c4cc3ccc4O)[C@H](O)c3ccc(c(Cl)c3)Oc3cc2cc(c3O[C@@H]2O[C@H](CO)[C@@H](O)[C@H](O)[C@H]2O[C@H]2C[C@](C)(NCc3ccc(C(=O)OCCCCCCN(Cc4ccccn4)Cc4ccccn4)cc3)[C@H](O)[C@H](C)O2)Oc2ccc(cc2Cl)[C@H]1O
HC50 (1 h, pH 7.4, 5% suspension): > 500 µM

CC(C)C[C@H](NC(=O)[C@H](C)NC(=O)CNC(=O)[C@@H](NC(=O)[C@@H](NC(=O)[C@H](CCCCN)NC(=O)[C@H](CCCCN)NC(=O)[C@H](CC(C)C)NC(=O)[C@H](CC(C)C)NC(=O)[C@H](CCCCN)NC(=O)[C@H](CC(C)C)NC(=O)[C@H](CC(C)C)NC(=O)[C@@H](N)CCCCN)C(C)C)C(C)C)C(=O)NCC(N)=O
minimal hemolytic concentration (1 h, 37 °C, hemolysis ≤5%): 125 µM

CC[C@H](C)[C@H](NC(=O)[C@H](Cc1c[nH]c2ccccc12)NC(=O)[C@H](CCCCN)NC(=O)[C@H](CC(C)C)NC(=O)[C@@H](NC(=O)[C@@H](NC(=O)CNC(=O)[C@H](CCCCN)NC(=O)[C@H](Cc1c[nH]cn1)NC(=O)[C@H](CCCCN)NC(=O)[C@H](Cc1c[nH]c2ccccc12)NC(=O)[C@H](C)NC(=O)[C@H](CC(C)C)NC(=O)[C@H](CO)NC(=O)[C@@H](NC(=O)[C@H](Cc1ccc(O)cc1)NC(=O)[C@H](CCCCN)NC(=O)[C@@H](N)CCC(N)=O)C(C)C)[C@@H](C)O)[C@@H](C)CC)C(=O)N[C@@H](CC(N)=O)C(=O)N[C@@H](C)C(N)=O
highest non-haemolytic concentration: > 600 µg/mL

CCCC(=O)NCC(=O)N[C@@H](CC(C)C)C(=O)N[C@@H](CC(C)C)C(=O)N[C@@H](CCCCN)C(=O)N[C@@H](CCCNC(=N)N)C(=O)N[C@H](C(=O)N[C@@H](CCCCN)C(=O)N[C@H](C(=O)N[C@@H](CC(C)C)C(=O)N[C@@H](CC(C)C)C(=O)NCCCC[C@H](NC(=O)[C@H](CC(C)C)NC(=O)[C@H](CC(C)C)NC(=O)[C@@H](NC(=O)[C@H](CCCCN)NC(=O)[C@@H](NC(=O)[C@H](CCCNC(=N)N)NC(=O)[C@H](CCCCN)NC(=O)[C@H](CC(C)C)NC(=O)[C@H](CC(C)C)NC(=O)CNC(=O)CCC)[C@@H](C)CC)[C@@H](C)O)C(=O)NCCCC[C@H](NC(=O)[C@H](CCCCNC(=O)[C@H](CC(C)C)NC(=O)[C@H](CC(C)C)NC(=O)[C@@H](NC(=O)[C@H](CCCCN)NC(=O)[C@@H](NC(=O)[C@H](CCCNC(=N)N)NC(=O)[C@H](CCCCN)NC(=O)[C@H](CC(C)C)NC(=O)[C@H](CC(C)C)NC(=O)CNC(=O)CCC)[C@@H](C)CC)[C@@H](C)O)NC(=O)[C@H](CC(C)C)NC(=O)[C@H](CC(C)C)NC(=O)[C@@H](NC(=O)[C@H](CCCCN)NC(=O)[C@@H](NC(=O)[C@H](CCCNC(=N)N)NC(=O)[C@H](CCCCN)NC(=O)[C@H](CC(C)C)NC(=O)[C@H](CC(C)C)NC(=O)CNC(=O)CCC)[C@@H](C)CC)[C@@H](C)O)C(N)=O)[C@@H](C)O)[C@@H](C)CC
minimum haemolytic concentration (1 h, 37 °C, 10% haemolysis): 1.06 µM

CC(C)[C@@H](CC(=O)N[C@@H](CCCCN)CC(=O)N[C@H](CC(=O)N[C@H](CC(=O)N[C@@H](CCCCN)CC(=O)N[C@H](CC(=O)N[C@H](CC(=O)N[C@@H](CCCCN)CC(N)=O)C(C)C)C(C)C)C(C)C)C(C)C)NC(=O)C[C@@H](NC(=O)C[C@@H](N)Cc1ccc(O)cc1)C(C)C
haemolysis (antifungal MIC, 1 h, 37 °C; relative to: melittin): 8.8 ± 3.6%

CCCCCCCCCCCC(=O)NCC(=O)N[C@@H](CC(C)C)C(=O)N[C@@H](CC(C)C)C(=O)N[C@@H](CCCCN)C(=O)N[C@@H](CCCNC(=N)N)C(=O)N[C@H](C(=O)N[C@@H](CCCCN)C(=O)N[C@H](C(=O)N[C@@H](CC(C)C)C(=O)N[C@@H](CC(C)C)C(=O)NCCCC[C@H](NC(=O)[C@H](CC(C)C)NC(=O)[C@H](CC(C)C)NC(=O)[C@@H](NC(=O)[C@H](CCCCN)NC(=O)[C@@H](NC(=O)[C@H](CCCNC(=N)N)NC(=O)[C@H](CCCCN)NC(=O)[C@H](CC(C)C)NC(=O)[C@H](CC(C)C)NC(=O)CNC(=O)CCCCCCCCCCC)[C@@H](C)CC)[C@@H](C)O)C(=O)NCCCC[C@H](NC(=O)[C@H](CCCCNC(=O)[C@H](CC(C)C)NC(=O)[C@H](CC(C)C)NC(=O)[C@@H](NC(=O)[C@H](CCCCN)NC(=O)[C@@H](NC(=O)[C@H](CCCNC(=N)N)NC(=O)[C@H](CCCCN)NC(=O)[C@H](CC(C)C)NC(=O)[C@H](CC(C)C)NC(=O)CNC(=O)CCCCCCCCCCC)[C@@H](C)CC)[C@@H](C)O)NC(=O)[C@H](CC(C)C)NC(=O)[C@H](CC(C)C)NC(=O)[C@@H](NC(=O)[C@H](CCCCN)NC(=O)[C@@H](NC(=O)[C@H](CCCNC(=N)N)NC(=O)[C@H](CCCCN)NC(=O)[C@H](CC(C)C)NC(=O)[C@H](CC(C)C)NC(=O)CNC(=O)CCCCCCCCCCC)[C@@H](C)CC)[C@@H](C)O)C(N)=O)[C@@H](C)O)[C@@H](C)CC
minimum haemolytic concentration (1 h, 37 °C, 10% haemolysis): 211 µM

CC(C)C[C@H](NC(=O)CN)C(=O)N[C@@H](CC(C)C)C(=O)N[C@@H](CCCCN)C(=O)N[C@@H](CC(C)C)C(=O)N[C@@H](CC(C)C)C(=O)N[C@@H](CCCCN)C(=O)N[C@@H](CCCCN)C(=O)N[C@@H](CC(C)C)C(=O)N[C@@H](CC(C)C)C(=O)N[C@@H](CCCCN)C(=O)N[C@@H](CC(C)C)C(=O)N[C@@H](CC(C)C)C(=O)N[C@@H](CCCCN)C(N)=O
minimal hemolytic concentration (1 h, 37 °C, hemolysis ≤5%): 8 µM

CCCCCCCCCCCC(=O)NCC(=O)N[C@@H](CC(C)C)C(=O)N[C@@H](CC(C)C)C(=O)N[C@@H](CCCCN)C(=O)N[C@@H](CCCNC(=N)N)C(=O)N[C@H](C(=O)N[C@@H](CCCCN)C(=O)N[C@H](C(=O)N[C@@H](CC(C)C)C(=O)N[C@@H](CC(C)C)C(=O)NCCCC[C@H](NC(=O)[C@H](CCCCNC(=O)[C@H](CC(C)C)NC(=O)[C@H](CC(C)C)NC(=O)[C@@H](NC(=O)[C@H](CCCCN)NC(=O)[C@@H](NC(=O)[C@H](CCCNC(=N)N)NC(=O)[C@H](CCCCN)NC(=O)[C@H](CC(C)C)NC(=O)[C@H](CC(C)C)NC(=O)CNC(=O)CCCCCCCCCCC)[C@@H](C)CC)[C@@H](C)O)NC(=O)[C@H](CC(C)C)NC(=O)[C@H](CC(C)C)NC(=O)[C@@H](NC(=O)[C@H](CCCCN)NC(=O)[C@@H](NC(=O)[C@H](CCCNC(=N)N)NC(=O)[C@H](CCCCN)NC(=O)[C@H](CC(C)C)NC(=O)[C@H](CC(C)C)NC(=O)CNC(=O)CCCCCCCCCCC)[C@@H](C)CC)[C@@H](C)O)C(N)=O)[C@@H](C)O)[C@@H](C)CC
minimum haemolytic concentration (1 h, 37 °C, 10% haemolysis): 104 µM

CC[C@@H](C)[C@@H](NC(=O)[C@@H](C)NC(=O)[C@@H](CCCCN)NC(=O)[C@@H](CC(C)C)NC(=O)[C@@H](C)NC(=O)[C@H](NC(=O)[C@@H](Cc1c[nH]cn1)NC(=O)[C@@H](CC(C)C)NC(=O)[C@H](NC(=O)[C@H](NC(=O)[C@@H](CCCCN)NC(=O)[C@@H](CCCCN)NC(=O)[C@@H](C)NC(=O)[C@@H](CO)NC(=O)[C@@H](CCCCN)NC(=O)[C@@H](Cc1ccccc1)NC(=O)[C@H](NC(=O)[C@@H](CCCCN)NC(=O)[C@@H](CC(C)C)NC(=O)[C@@H](Cc1ccccc1)NC(=O)[C@@H](CO)NC(=O)[C@@H](CCCCN)NC(=O)[C@@H](Cc1c[nH]c2ccccc12)NC(=O)[C@@H](CCCCN)NC(C)=O)[C@H](C)O)[C@H](C)O)C(C)C)[C@H](C)O)C(=O)N[C@H](CO)C(=O)N[C@H](CO)C(N)=O
HC50 (hemolysis; 1% erythrocytes, 18 h, pH 7.4, 37 °C): 1000 µg/mL

A few entries again:
CCCCCCCCCCCC(=O)NCC(=O)N[C@@H](CC(C)C)C(=O)N[C@@H](CC(C)C)C(=O)N[C@@H](CCCCN)C(=O)N[C@@H](CCCNC(=N)N)C(=O)N[C@H](C(=O)N[C@@H](CCCCN)C(=O)N[C@H](C(=O)N[C@@H](CC(C)C)C(=O)N[C@@H](CC(C)C)C(=O)NCCCC[C@H](NC(=O)[C@H](CCCCNC(=O)[C@H](CC(C)C)NC(=O)[C@H](CC(C)C)NC(=O)[C@@H](NC(=O)[C@H](CCCCN)NC(=O)[C@@H](NC(=O)[C@H](CCCNC(=N)N)NC(=O)[C@H](CCCCN)NC(=O)[C@H](CC(C)C)NC(=O)[C@H](CC(C)C)NC(=O)CNC(=O)CCCCCCCCCCC)[C@@H](C)CC)[C@@H](C)O)NC(=O)[C@H](CC(C)C)NC(=O)[C@H](CC(C)C)NC(=O)[C@@H](NC(=O)[C@H](CCCCN)NC(=O)[C@@H](NC(=O)[C@H](CCCNC(=N)N)NC(=O)[C@H](CCCCN)NC(=O)[C@H](CC(C)C)NC(=O)[C@H](CC(C)C)NC(=O)CNC(=O)CCCCCCCCCCC)[C@@H](C)CC)[C@@H](C)O)C(N)=O)[C@@H](C)O)[C@@H](C)CC
minimum haemolytic concentration (1 h, 37 °C, 10% haemolysis): 104 µM
